Experimental data pooled from the literature.
Lines come from different studies, so protocols differ. ± gives the spread as reported.
Organism: SARS-CoV-2

Compound	test	system	conditions	IC50 [nM]
COc1ccc2nc3ccc(C(F)(F)F)cc3c(Nc3ccc(O)c(CN4CCCC4)c3)c2c1	viral replication	U2OS, BetaCoV/France/IDF0372/2020		1900
CC[C@H](C)[C@H](NC(=O)[C@H](C)NC(=O)[C@H](CCC(=O)O)NC(=O)[C@H](CCC(=O)O)NC(=O)[C@H](CC(C)C)NC(=O)[C@H](CCCCN)NC(=O)[C@H](CCCCN)NC(=O)[C@H](CCSC)NC(=O)[C@H](CCC(=O)O)NC(=O)[C@H](Cc1ccc(O)cc1)NC(=O)[C@H](CCC(=O)O)NC(=O)[C@H](CC(C)C)NC(=O)[C@H](CC(=O)O)NC(=O)[C@H](CC(C)C)NC(=O)[C@H](Cc1ccccc1)NC(=O)[C@@H](NC(=O)[C@@H](NC(=O)[C@@H](N)CC(N)=O)C(C)C)[C@@H](C)O)C(=O)N[C@@H](CCCCN)C(=O)N[C@@H](CCCCN)C(=O)N[C@@H](CC(C)C)C(=O)N[C@@H](CCC(=O)O)C(=O)N[C@@H](CCC(=O)O)C(=O)N[C@@H](CO)C(=O)N[C@@H](Cc1ccc(O)cc1)C(=O)N[C@H](C(=O)N[C@@H](CC(=O)O)C(=O)N[C@@H](CC(C)C)C(=O)N[C@@H](CCCCN)C(=O)N[C@@H](CCC(=O)O)C(=O)N[C@@H](CC(C)C)C(=O)NCC(=O)N[C@H](C(=O)N[C@@H](Cc1ccc(O)cc1)C(=O)N[C@@H](CCC(=O)O)C(=O)N[C@@H](Cc1ccc(O)cc1)C(N)=O)[C@@H](C)O)[C@@H](C)CC	viral replication			1410
C=CCCCCOP(=O)(O)Oc1c2c(c(OP(=O)(O)OCCCCC=C)c3c1C1CC3c3cc4c(cc31)C1CC4c3ccccc31)C1CC2c2cc3c(cc21)C1CC3c2ccccc21	spike pseudoparticle entry	Caco-2		16800
CC1OC(OC2C(OC(=O)C34CCC(C)(C)CC3C3=CCC5C6(C)CCC(OC7OC(CO)C(O)C(O)C7O)C(C)(C)C6CCC5(C)C3(C)CC4)OCC(O)C2O)C(O)C(O)C1OC1OCC(O)C(OC2OCC(O)C(O)C2O)C1O (centres unmarked)	pseudovirus cell entry, luciferase reporter	NCI-H1299 ACE2-expressing	24 h	1330
Cc1ccc(N2CC(N3CCC(C)(O)CC3)C2)cc1C(=O)NC1(c2ccc3c4c(cccc24)CC3)CC1	viral replication	Vero C1008, XBB.1		155 ± 10
CCC(CC)COC(=O)[C@H](C)N[P@](=O)(OC[C@H]1O[C@@](C#N)(c2ccc3c(N)ncnn23)[C@H](O)[C@@H]1O)Oc1ccccc1	viral replication, RT-qPCR, refers to: viral RNA in supernatant	Calu-3, RIM-1		94
CC1OC(OC2C(OC(=O)C34CCC(C)(C)CC3C3=CCC5C6(C)CCC(OC7OC(CO)C(O)C(O)C7O)C(C)(C)C6CCC5(C)C3(C)CC4O)OCC(O)C2O)C(O)C(O)C1OC1OCC(O)C(OC2OCC(O)C(OC3OCC(O)C(O)C3O)C2O)C1O (centres unmarked)	pseudovirus cell entry, luciferase reporter	NCI-H1299 ACE2-expressing	24 h	650
O=c1c2ccccc2[se]n1-c1cccc(F)c1				19900
Cc1oc2nc1C(=O)N[C@](C)(C(=O)OC(C)C)c1nc(c(C)o1)C(=O)N[C@](C)(C(=O)OC(C)C)c1nc(c(C)o1)C(=O)N[C@]2(C)C(=O)OC(C)C	viral replication	Vero E6, NRC-03-nhCoV	72 h	18300
Oc1ccc(Nc2c3cc(Cl)ccc3nc3ccc(Cl)cc23)cc1CN1CCCC1	viral replication	U2OS, BetaCoV/France/IDF0372/2020		1750
CC(C)COP(=O)(O)Oc1c2c(c(OP(=O)(O)OCC(C)C)c3c1C1CC3c3cc4c(cc31)C1CC4c3ccccc31)C1CC2c2cc3c(cc21)C1CC3c2ccccc21	spike pseudoparticle entry	Caco-2		24300
CC1OC(OC2C(OC(=O)C34CCC(C)(C)CC3C3=CCC5C6(C)CCC(O)C(C)(C)C6CCC5(C)C3(C)CC4)OCC(O)C2O)C(O)C(O)C1OC1OCC(O)C(OC2OCC(O)C(O)C2O)C1O (centres unmarked)	pseudovirus cell entry, luciferase reporter	NCI-H1299 ACE2-expressing	24 h	> 10000
Cc1ccc(N2CC3CC(C2)N3C)cc1C(=O)NC1(c2ccc3c4c(cccc24)C(=O)N3C)CC1	viral replication	Vero C1008, XBB.1		63 ± 6.2
CCN(CC)CCCC(C)Nc1c2cc(Cl)ccc2nc2ccc(OC)cc12 (centres unmarked)	viral replication	U2OS, BetaCoV/France/IDF0372/2020		410
O=P(O)(OCc1ccc(-c2ccccc2)cc1)Oc1c2c(c(OP(=O)(O)OCc3ccc(-c4ccccc4)cc3)c3c1C1CC3c3cc4c(cc31)C1CC4c3ccccc31)C1CC2c2cc3c(cc21)C1CC3c2ccccc21	spike pseudoparticle entry	Caco-2		2900
CC(C)CC(=O)OC1C=CC=CC(=O)OC2C(C)CC3C2(O)C(O)C2(C)OC2C2C4OC5(c6ccccc6)OC(C(C)C23O5)C4(O)C(C)(O)CC2CCC1C2C (centres unmarked)	viral replication	Vero E6		60
CC(C)OP(=O)(O)Oc1c2c(c(OP(=O)(O)OC(C)C)c3c1C1CC3c3cc4c(cc31)C1CC4c3ccccc31)C1CC2c2cc3c(cc21)C1CC3c2ccccc21	spike pseudoparticle entry	Caco-2		29200
CCN(CC)CCCC(C)Nc1c2ccc(Cl)cc2nc2ccc(OC)nc12 (centres unmarked)	viral replication	U2OS, BetaCoV/France/IDF0372/2020		1270
Cc1ccc(COP(=O)(O)Oc2c3c(c(OP(=O)(O)OCc4ccc(C)cc4)c4c2C2CC4c4cc5c(cc42)C2CC5c4ccccc42)C2CC3c3cc4c(cc32)C2CC4c3ccccc32)cc1	spike pseudoparticle entry	Caco-2		1600
COc1ccc2nc3ccc(C(F)(F)F)cc3c(Nc3cc(CN4CCCC4)c(O)c(CN4CCCC4)c3)c2c1	viral replication	U2OS, BetaCoV/France/IDF0372/2020		440
O=C(Nc1ccc([N+](=O)[O-])cc1Cl)c1cc(Cl)ccc1O	viral replication	Vero E6		330
Cc1oc2nc1C(=O)N[C@](C)(C(=O)O)c1nc(c(C)o1)C(=O)N[C@](C)(C(=O)O)c1nc(c(C)o1)C(=O)N[C@]2(C)C(=O)O	viral replication	Vero E6, NRC-03-nhCoV	72 h	19000
CC[C@@]1(O)C[C@H](O[C@H]2C[C@H](N(C)C)[C@H](O[C@H]3C[C@H](O)[C@H](O[C@H]4CCC(=O)[C@H](C)O4)[C@H](C)O3)[C@H](C)O2)c2c(cc3c(c2O)C(=O)c2c(O)cccc2C3=O)[C@H]1C(=O)OC	viral replication, RT-qPCR, refers to: viral RNA in supernatant	Calu-3, SA		136
O=P(O)(OCCc1ccccc1)Oc1c2c(c(OP(=O)(O)OCCc3ccccc3)c3c1C1CC3c3cc4c(cc31)C1CC4c3ccccc31)C1CC2c2cc3c(cc21)C1CC3c2ccccc21	spike pseudoparticle entry	Caco-2		1600
COc1ccc2nc3ccc(Cl)cc3c(Nc3cc(CN4CCCC4)c(O)c(CN4CCCC4)c3)c2c1	viral replication	U2OS, BetaCoV/France/IDF0372/2020		1880
C#CCOP(=O)(O)Oc1c2c(c(OP(=O)(O)OCC#C)c3c1C1CC3c3cc4c(cc31)C1CC4c3ccccc31)C1CC2c2cc3c(cc21)C1CC3c2ccccc21	spike pseudoparticle entry	Caco-2		13700
CC[C@H](C)[C@@H]1NC(=O)[C@H](CCC(N)=O)NC(=O)[C@H](CCC(=O)O)NC(=O)[C@H](CCCNC(=N)N)NC(=O)[C@@H]2CCCN2C(=O)[C@H](CCCNC(=N)N)NC(=O)[C@H](CCCNC(=N)N)NC(=O)[C@H](Cc2ccc(O)cc2)NC(=O)CSC[C@@H](C(=O)NCC(N)=O)NC(=O)[C@H](Cc2ccccc2)NC(=O)[C@H](C(C)C)NC(=O)[C@H](Cc2c[nH]c3ccccc23)NC(=O)[C@H](CC(C)C)NC(=O)[C@H](CO)NC(=O)CNC(=O)[C@H]([C@@H](C)CC)NC(=O)[C@H]([C@@H](C)CC)NC1=O		HEK293 ACE2 TMPRSS2, ancestral Wuhan		5200
O=P(O)(OCc1cccc2ccccc12)Oc1c2c(c(OP(=O)(O)OCc3cccc4ccccc34)c3c1C1CC3c3cc4c(cc31)C1CC4c3ccccc31)C1CC2c2cc3c(cc21)C1CC3c2ccccc21	spike pseudoparticle entry	Caco-2		2400
CC1OC(OC2C(OCC34CCC(C)(C)CC3C3=CCC5C6(C)CCC(OC7OC(CO)C(O)C(O)C7O)C(C)(C)C6CCC5(C)C3(C)CC4O)OCC(O)C2O)C(O)C(O)C1OC1OCC(O)C(OC2OCC(O)C(O)C2O)C1O (centres unmarked)	pseudovirus cell entry, luciferase reporter	NCI-H1299 ACE2-expressing	24 h	> 10000

Excerpt of the above:
Compound	test	system	conditions	IC50 [nM]
CCN(CC)CCCC(C)Nc1c2cc(Cl)ccc2nc2ccc(OC)cc12 (centres unmarked)	viral replication	U2OS, BetaCoV/France/IDF0372/2020		410
O=c1c2ccccc2[se]n1-c1cccc(F)c1				19900
CC[C@H](C)[C@H](NC(=O)[C@H](C)NC(=O)[C@H](CCC(=O)O)NC(=O)[C@H](CCC(=O)O)NC(=O)[C@H](CC(C)C)NC(=O)[C@H](CCCCN)NC(=O)[C@H](CCCCN)NC(=O)[C@H](CCSC)NC(=O)[C@H](CCC(=O)O)NC(=O)[C@H](Cc1ccc(O)cc1)NC(=O)[C@H](CCC(=O)O)NC(=O)[C@H](CC(C)C)NC(=O)[C@H](CC(=O)O)NC(=O)[C@H](CC(C)C)NC(=O)[C@H](Cc1ccccc1)NC(=O)[C@@H](NC(=O)[C@@H](NC(=O)[C@@H](N)CC(N)=O)C(C)C)[C@@H](C)O)C(=O)N[C@@H](CCCCN)C(=O)N[C@@H](CCCCN)C(=O)N[C@@H](CC(C)C)C(=O)N[C@@H](CCC(=O)O)C(=O)N[C@@H](CCC(=O)O)C(=O)N[C@@H](CO)C(=O)N[C@@H](Cc1ccc(O)cc1)C(=O)N[C@H](C(=O)N[C@@H](CC(=O)O)C(=O)N[C@@H](CC(C)C)C(=O)N[C@@H](CCCCN)C(=O)N[C@@H](CCC(=O)O)C(=O)N[C@@H](CC(C)C)C(=O)NCC(=O)N[C@H](C(=O)N[C@@H](Cc1ccc(O)cc1)C(=O)N[C@@H](CCC(=O)O)C(=O)N[C@@H](Cc1ccc(O)cc1)C(N)=O)[C@@H](C)O)[C@@H](C)CC	viral replication			1410
CC[C@@]1(O)C[C@H](O[C@H]2C[C@H](N(C)C)[C@H](O[C@H]3C[C@H](O)[C@H](O[C@H]4CCC(=O)[C@H](C)O4)[C@H](C)O3)[C@H](C)O2)c2c(cc3c(c2O)C(=O)c2c(O)cccc2C3=O)[C@H]1C(=O)OC	viral replication, RT-qPCR, refers to: viral RNA in supernatant	Calu-3, SA		136
